Published values gathered from unrelated publications.
Protocols differ between the studies behind these lines.
Method: steady-state kinetics
B1: BKGD (Homo sapiens, UniProt Q9H0W9); chain MACAEFSFHVPSLEELAGVMQKGLKDNFADVQVSVVDCPDLTKEPFTFPVKGICGKTRIAEVGGVPYLLPLVNQKKVYDLNKIAKEIKLPGAFILGAGAGPFQTLGFNSEFMPVIQTESEHKPPVNGSYFAHVNPADGGCLLEKYSEKCHDFQCALLANLFASEGQPGKVIEVKAKRRTGPLNFVTCMRETLEKHYGNKPIGMGGTFIIQKGKVKSHIMPAEFSSCPLNSDEEVNKWLHFYEMKAPLVCLPVFVSRDPGFDLRLEHTHFFSRHGEGGHYHYDTTPDIVEYLGYFLPAEFLYRIDQPKETHSIGRD
B2: enzyme (Rattus norvegicus, UniProt P06757); chain STAGKVIKCKAAVLWEPHKPFTIEDIEVAPPKAHEVRIKMVATGVCRSDDHAVSGSLFTPLPAVLGHEGAGIVESIGEGVTCVKPGDKVIPLFSPQCGKCRICKHPESNLCCQTKNLTQPKGALLDGTSRFSCRGKPIHHFISTSTFSQYTVVDDIAVAKIDAAAPLDKVCLIGCGFSTGYGSAVQVAKVTPGSTCAVFGLGGVGLSVVIGCKTAGAAKIIAVDINKDKFAKAKELGATDCINPQDYTKPIQEVLQEMTDGGVDFSFEVIGRLDTMTSALLSCHSACGVSVIVGVPPSAQSLSVNPMSLLLGRTWKGAIFGGFKSKDAVPKLVADFMAKKFPLEPLITHVLPFEKINEAFDLLRAGKSIRTVLTF
B3: protein (Streptomyces sp. NRRL 30471, UniProt F2WUC8); chain MVRADYRTPEVNDVVRYRYGAAETALLKNRISEFGFTMAEVPGECAPQTEIERLGKALGLGEPYVAALYQRGDTRAHGALYTDVRSRAHNTHPGFGTTEGQTIHVDGLLEPIGTIRTTILFCVRPAVSGGRTVLFNSSAAFETLRHSDPAAAESLRDPGVLRRRSTLPNVDAGHTGPAFAYDNGLLITRYSEGPTVEWNAPPGRSAELERALNFLRAAAEDKRYSIALRLGAGEALIFRNDVISHGREAYRDDPAAPRHLIRTLYLESP
B4: Saccharopine reductase (Saccharomyces cerevisiae, UniProt P38999); chain MGKNVLLLGSGFVAQPVIDTLAANDDINVTVACRTLANAQALAKPSGSKAISLDVTDDSALDKVLADNDVVISLIPYTFHPNVVKSAIRTKTDVVTSSYISPALRELEPEIVKAGITVMNEIGLDPGIDHLYAVKTIDEVHRAGGKLKSFLSYCGGLPAPEDSDNPLGYKFSWSSRGVLLALRNSAKYWKDGKIETVSSEDLMATAKPYFIYPGYAFVCYPNRDSTLFKDLYHIPEAETVIRGTLRYQGFPEFVKALVDMGMLKDDANEIFSKPIAWNEALKQYLGAKSTSKEDLIASIDSKATWKDDEDRERILSGFAWLGLFSDAKITPRGNALDTLCARLEELMQYEDNERDMVVLQHKFGIEWADGTTETRTSTLVDYGKVGGYSSMAATVGYPVAIATKFVLDGTIKGPGLLAPYSPEINDPIMKELKDKYGIYLKEKTVA
B5: FMO3 V257M (Homo sapiens, UniProt P31513); chain GKKVAIIGAGVSGLASIRSCLEEGLEPTCFEKSNDIGGLWKFSDHAEEGRASIYKSVFSNSSKEMMCFPDFPFPDDFPNFMHNSKIQEYIIAFAKEKNLLKYIQFKTFVSSVNKHPDFATTGQWDVTTERDGKKESAVFDAVMVCSGHHVYPNLPKESFPGLNHFKGKCFHSRDYKEPGVFNGKRVLVVGLGNSGCDIATELSRTAEQVMISSRSGSWVMSRVWDNGYPWDMLLVTRFGTFLKNNLPTAISDWLYMKQMNARFKHENYGLMPLNGVLRKEPVFNDELPASILCGIVSVKPNVKEFTETSAIFEDGTIFEGIDCVIFATGYSFAYPFLDESIIKSRNNEIILFKGVFPPLLEKSTIAVIGFVQSLGAAIPTVDLQSRWAAQVIKGTCTLPSMEDMMNDINEKMEKKRKWFGKSETIQTDYIVYMDELSSFIGAKPNIPWLFLTDPKLAMEVYFGPCSPYQFRLVGPGQWPGARNAILTQWDRSLKPMQTRVVGRLQKPCFFFHWLKLFAIPILLIAVFLVLT
B6: UGT3A2 Y74N (Homo sapiens, UniProt Q3SY77); chain AKILTISTVGGSHYLLMDRVSQILQDHGHNVTMLNHKRGPFMPDFKKEEKSNQVISWLAPEDHQREFKKSFDFFLEETLGGRGKFENLLNVLEYLALQCSHFLNRKDIMDSLKNENFDMVIVETFDYCPFLIAEKLGKPFVAILSTSFGSLEFGLPIPLSYVPVFRSLLTDHMDFWGRVKNFLMFFSFCRRQQHMQSTFDNTIKEHFTEGSRPVLSHLLLKAELWFINSDFAFDFARPLLPNTVYVGGLMEKPIKPVPQDLENFIAKFGDSGFVLVTLGSMVNTCQNPEIFKEMNNAFAHLPQGVIWKCQCSHWPKDVHLAANVKIVDWLPQSDLLAHPSIRLFVTHGGQNSIMEAIQHGVPMVGIPLFGDQPENMVRVEAKKFGVSIQLKKLKAETLALKMKQIMEDKRYKSAAVAASVILRSHPLSPTQRLVGWIDHVLQTGGATHLKPYVFQQPWHEQYLLDVFVFLLGLTLGTLWLCGKLLGMAVWWLRGARKVKET
B7: CstB (Staphylococcus aureus, UniProt G5ELA4); chain MFFKQFYDNHLSQASYLVGCQRTGEAIIIDPVRDLSKYIEVADSEGLTITQATETHIHADFASGIRDVAKRLNANIYVSGEGEDALGYKNMPSKTQFVKHGDIIQVGNVKLEVLHTPGHTPESISFLLTDLGGGSSVPMGLFSGDFIFVGDIGRPDLLEKSVQIKGSTEISAKQMYESVQNIKNLPDYVQIWPGHGAGSPCGKALGAIPISTIGYEKINNWAFNEIDETKFIESLTSNQPAPPHHFAQMKQVNQFGMNLYQSYDVYPSLDNKRVAFDLRSKEAFHGGHTKGTINIPYNKNFINQIGWYLDFEKDIDLIGDKSTVEKAKHTLQLIGFDKVAGYRLPKSGISTQSVHSADMTGKEEHVLDVRNDEEWNNGHLDQAVNIPHGKLLNENIPFNKEDKIYVHCQSGVRSSIAVGILESKGFENVVNIREGYQDFPESLK
UniProt Q9HJT3, sequence (whole entry, looked up): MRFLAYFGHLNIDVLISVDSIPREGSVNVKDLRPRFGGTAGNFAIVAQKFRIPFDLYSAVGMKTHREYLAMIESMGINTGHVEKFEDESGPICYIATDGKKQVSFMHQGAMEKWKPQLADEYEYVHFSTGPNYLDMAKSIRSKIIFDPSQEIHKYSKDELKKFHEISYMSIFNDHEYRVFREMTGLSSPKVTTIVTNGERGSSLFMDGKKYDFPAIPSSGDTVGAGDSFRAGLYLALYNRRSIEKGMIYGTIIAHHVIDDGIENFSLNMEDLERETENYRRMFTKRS
UniProt Q8N6T7, sequence (whole entry, looked up): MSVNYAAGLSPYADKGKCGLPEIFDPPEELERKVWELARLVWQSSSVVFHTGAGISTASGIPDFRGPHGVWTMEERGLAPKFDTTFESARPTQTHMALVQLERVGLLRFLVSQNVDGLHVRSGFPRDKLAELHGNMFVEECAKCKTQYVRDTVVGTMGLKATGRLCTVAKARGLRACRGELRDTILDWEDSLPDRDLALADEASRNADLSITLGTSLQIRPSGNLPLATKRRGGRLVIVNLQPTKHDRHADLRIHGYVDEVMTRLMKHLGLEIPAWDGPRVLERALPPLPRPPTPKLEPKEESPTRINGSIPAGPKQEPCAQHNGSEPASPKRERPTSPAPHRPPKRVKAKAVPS
UniProt P0AFG3, sequence (whole entry, looked up): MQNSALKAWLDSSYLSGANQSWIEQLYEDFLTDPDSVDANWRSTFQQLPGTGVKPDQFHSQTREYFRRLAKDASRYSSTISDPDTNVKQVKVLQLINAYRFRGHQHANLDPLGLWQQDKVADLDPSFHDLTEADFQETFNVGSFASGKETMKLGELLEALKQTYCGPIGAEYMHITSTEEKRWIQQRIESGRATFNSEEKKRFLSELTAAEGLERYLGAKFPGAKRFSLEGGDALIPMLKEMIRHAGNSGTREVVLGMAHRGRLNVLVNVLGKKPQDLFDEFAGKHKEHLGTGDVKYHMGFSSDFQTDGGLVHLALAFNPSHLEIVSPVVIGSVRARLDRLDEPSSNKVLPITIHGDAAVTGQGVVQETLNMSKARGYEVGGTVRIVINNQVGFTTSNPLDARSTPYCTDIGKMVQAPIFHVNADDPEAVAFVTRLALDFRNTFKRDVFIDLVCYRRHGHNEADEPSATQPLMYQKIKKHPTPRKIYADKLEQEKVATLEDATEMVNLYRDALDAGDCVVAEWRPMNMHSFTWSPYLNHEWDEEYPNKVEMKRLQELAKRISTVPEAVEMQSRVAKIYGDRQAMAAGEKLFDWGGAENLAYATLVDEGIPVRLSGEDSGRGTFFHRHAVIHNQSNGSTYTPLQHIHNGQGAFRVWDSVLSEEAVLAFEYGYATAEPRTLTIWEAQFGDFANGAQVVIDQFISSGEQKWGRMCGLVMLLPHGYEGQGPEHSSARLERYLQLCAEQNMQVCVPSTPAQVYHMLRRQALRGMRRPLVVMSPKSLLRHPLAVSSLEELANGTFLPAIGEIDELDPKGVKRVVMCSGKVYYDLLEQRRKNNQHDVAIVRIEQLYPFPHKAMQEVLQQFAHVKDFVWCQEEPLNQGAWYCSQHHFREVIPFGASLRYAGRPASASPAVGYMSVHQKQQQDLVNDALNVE
UniProt Q99042, sequence (whole entry, looked up): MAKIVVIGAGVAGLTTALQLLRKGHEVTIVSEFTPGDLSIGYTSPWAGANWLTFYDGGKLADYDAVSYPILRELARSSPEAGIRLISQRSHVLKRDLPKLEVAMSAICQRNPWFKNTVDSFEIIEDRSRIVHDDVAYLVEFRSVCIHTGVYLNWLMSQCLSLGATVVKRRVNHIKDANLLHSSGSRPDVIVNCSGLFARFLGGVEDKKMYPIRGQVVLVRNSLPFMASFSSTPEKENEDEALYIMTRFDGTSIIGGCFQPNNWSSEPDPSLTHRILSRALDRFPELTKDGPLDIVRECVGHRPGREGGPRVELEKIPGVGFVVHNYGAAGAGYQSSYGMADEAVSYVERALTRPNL

Molecule	substrate	medium	pH	temperature	setting	with	Km [µM]
B1 (BKGD)	O=C(O)[C@@H](O)C(=O)[C@H](O)[C@@H](O)CO	–	–	37 °C	–	–	20.2
enzyme (Thermotoga maritima, UniProt Q9WZ18)	Cc1cc2nc3c(=O)[nH]c(=O)nc-3n(C[C@H](O)[C@H](O)[C@H](O)COP(=O)(O)OP(=O)(O)OC[C@H]3O[C@@H](n4cnc5c(N)ncnc54)[C@H](O)[C@@H]3O)c2cc1C	–	pH 7	80 °C	apparent, cofactor varied	–	0.15
B2 (enzyme)	OCCCCCO	–	pH 7.3	37 °C	–	–	3500
B3 (protein)	O=c1ccn([C@@H]2O[C@H](COP(=O)(O)O)[C@@H](O)[C@H]2O)c(=O)[nH]1	–	pH 7.5	30 °C	–	αKG 2 mM, ascorbic acid 2 mM, FeCl2 0.4 mM	21
sucA (Escherichia coli, UniProt P0AFG3)	O=C(O)C(=O)CO	–	pH 6.8	37 °C	–	–	720
DAO1 (Trigonopsis variabilis, UniProt Q99042)	CN(C)c1ccc2nc3ccc(N(C)C)c([N+](=O)[O-])c3[s+]c2c1	–	pH 8	22 °C	apparent	–	62
B4 (Saccharopine reductase)	N[C@@H](CCC(=O)O)C(=O)O	–	pH 7	25 °C	–	NADPH, AASA	28000
TaNK (Thermoplasma acidophilum, UniProt Q9HJT3)	Nc1ncnc2c1ncn2[C@@H]1O[C@H](COP(=O)(O)OP(=O)(O)OP(=O)(O)O)[C@@H](O)[C@H]1O	–	pH 8	22 °C	apparent	inosine, Mg2+	46.9
SIRT6 (Homo sapiens, UniProt Q8N6T7)	CSCC[C@H](NC(=O)[C@H](CC(C)C)NC(=O)[C@H](CCCCNC(C)=O)NC(=O)[C@H](CCCCN)NC(=O)[C@H](Cc1c[nH]cn1)NC(=O)[C@H](CCCNC(=N)N)NC(=O)[C@H](CO)NC(=O)[C@@H](NC(=O)[C@H](CO)NC(=O)[C@H](CCC(N)=O)NC(=O)CNC(=O)[C@H](CCCCN)NC(=O)[C@@H](N)CCCCN)[C@@H](C)O)C(=O)N[C@@H](Cc1ccccc1)C(=O)N[C@@H](CCCCN)C(=O)N[C@H](C(=O)N[C@@H](CCC(=O)O)C(=O)NCC(=O)O)[C@@H](C)O	–	pH 7.5	37 °C	–	NAD+ 800 µM, SIRT6 10 µM	1600
B5 (FMO3 V257M)	CN1CCC[C@H]1c1cccnc1	HEK293 microsomes	–	37 °C	not purified	NADPH regenerating system	1800
B6 (UGT3A2 Y74N)	O=c1ccn([C@@H]2O[C@H](CO[P@@](=O)(O)O[P@@](=O)(O)O[C@H]3O[C@H](CO)[C@@H](O)[C@H](O)[C@H]3O)[C@@H](O)[C@H]2O)c(=O)[nH]1	–	pH 7.4	37 °C	not purified	1-OH-pyrene 16 µM, MgCl2 10 mM, alamethicin	3360
B7 (CstB)	CC(C)(COP(=O)(O)OP(=O)(O)OC[C@H]1O[C@@H](n2cnc3c(N)ncnc32)[C@H](O)[C@@H]1OP(=O)(O)O)[C@@H](O)C(=O)NCCC(=O)NCCSS	–	pH 6	25 °C	NaBr 100 mM, air-saturated	Fe(II), O2	1100

For quick reference, copied from above:
Molecule	substrate	medium	pH	temperature	setting	with	Km [µM]
B1 (BKGD)	O=C(O)[C@@H](O)C(=O)[C@H](O)[C@@H](O)CO	–	–	37 °C	–	–	20.2
